Results from different studies.
Numbered parts are unrelated; each lists some results of a single study.
UniProt Q6ZWH5, sequence (whole entry, looked up): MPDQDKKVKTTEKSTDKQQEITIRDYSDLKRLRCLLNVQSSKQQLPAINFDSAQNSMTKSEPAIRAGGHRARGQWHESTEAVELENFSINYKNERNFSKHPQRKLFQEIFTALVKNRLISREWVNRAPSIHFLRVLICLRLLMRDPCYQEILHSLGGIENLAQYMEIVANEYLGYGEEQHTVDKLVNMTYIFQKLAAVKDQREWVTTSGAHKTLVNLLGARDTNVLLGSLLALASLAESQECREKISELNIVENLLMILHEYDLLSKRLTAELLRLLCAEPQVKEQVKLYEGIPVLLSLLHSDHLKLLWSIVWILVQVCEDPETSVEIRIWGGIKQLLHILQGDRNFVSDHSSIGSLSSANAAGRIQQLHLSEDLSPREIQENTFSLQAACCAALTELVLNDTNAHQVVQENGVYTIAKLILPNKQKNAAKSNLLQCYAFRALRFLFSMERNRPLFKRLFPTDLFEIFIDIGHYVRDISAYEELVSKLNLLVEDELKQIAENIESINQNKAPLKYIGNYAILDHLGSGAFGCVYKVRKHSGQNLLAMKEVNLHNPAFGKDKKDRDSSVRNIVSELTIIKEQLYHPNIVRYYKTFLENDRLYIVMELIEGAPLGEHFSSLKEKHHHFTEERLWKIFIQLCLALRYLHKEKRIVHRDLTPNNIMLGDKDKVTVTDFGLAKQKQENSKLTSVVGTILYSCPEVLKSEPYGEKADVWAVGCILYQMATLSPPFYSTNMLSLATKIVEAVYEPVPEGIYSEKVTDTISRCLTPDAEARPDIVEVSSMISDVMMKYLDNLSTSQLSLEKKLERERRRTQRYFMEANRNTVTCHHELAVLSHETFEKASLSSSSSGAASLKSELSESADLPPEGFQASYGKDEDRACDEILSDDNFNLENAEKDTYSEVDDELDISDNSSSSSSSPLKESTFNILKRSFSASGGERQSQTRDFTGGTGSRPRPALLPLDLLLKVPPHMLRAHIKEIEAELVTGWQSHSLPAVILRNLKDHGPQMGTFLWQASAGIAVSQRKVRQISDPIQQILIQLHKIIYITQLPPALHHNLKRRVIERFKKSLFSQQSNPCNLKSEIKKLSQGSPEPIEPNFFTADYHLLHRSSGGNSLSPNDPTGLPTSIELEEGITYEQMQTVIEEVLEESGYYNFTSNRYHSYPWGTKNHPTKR
UniProt Q8TD19, sequence (whole entry, looked up): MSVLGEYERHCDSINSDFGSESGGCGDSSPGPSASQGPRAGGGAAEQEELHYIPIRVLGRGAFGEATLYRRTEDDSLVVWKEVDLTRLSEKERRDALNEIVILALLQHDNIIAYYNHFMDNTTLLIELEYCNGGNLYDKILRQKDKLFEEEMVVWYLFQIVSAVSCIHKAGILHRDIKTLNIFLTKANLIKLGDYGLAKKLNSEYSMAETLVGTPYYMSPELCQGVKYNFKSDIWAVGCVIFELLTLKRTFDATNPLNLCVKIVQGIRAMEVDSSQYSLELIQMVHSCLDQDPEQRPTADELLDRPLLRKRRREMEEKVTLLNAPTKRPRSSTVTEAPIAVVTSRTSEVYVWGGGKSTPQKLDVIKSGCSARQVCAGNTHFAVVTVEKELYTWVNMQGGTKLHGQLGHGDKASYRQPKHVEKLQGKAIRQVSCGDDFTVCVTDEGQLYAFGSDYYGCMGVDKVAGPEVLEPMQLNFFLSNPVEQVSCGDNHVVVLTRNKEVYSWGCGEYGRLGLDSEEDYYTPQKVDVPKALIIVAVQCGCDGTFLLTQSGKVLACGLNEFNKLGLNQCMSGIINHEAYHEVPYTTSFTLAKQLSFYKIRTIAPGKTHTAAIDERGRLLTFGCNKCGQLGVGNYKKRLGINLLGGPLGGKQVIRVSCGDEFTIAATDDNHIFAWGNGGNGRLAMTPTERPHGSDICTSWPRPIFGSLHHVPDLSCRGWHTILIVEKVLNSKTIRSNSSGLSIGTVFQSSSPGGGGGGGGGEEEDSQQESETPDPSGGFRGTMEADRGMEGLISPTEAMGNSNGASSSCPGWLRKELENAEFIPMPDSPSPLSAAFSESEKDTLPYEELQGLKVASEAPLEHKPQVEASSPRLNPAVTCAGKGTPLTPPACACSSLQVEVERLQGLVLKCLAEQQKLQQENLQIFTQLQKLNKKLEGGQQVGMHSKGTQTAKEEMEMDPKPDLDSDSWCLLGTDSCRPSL
UniProt Q16620, sequence (whole entry, looked up): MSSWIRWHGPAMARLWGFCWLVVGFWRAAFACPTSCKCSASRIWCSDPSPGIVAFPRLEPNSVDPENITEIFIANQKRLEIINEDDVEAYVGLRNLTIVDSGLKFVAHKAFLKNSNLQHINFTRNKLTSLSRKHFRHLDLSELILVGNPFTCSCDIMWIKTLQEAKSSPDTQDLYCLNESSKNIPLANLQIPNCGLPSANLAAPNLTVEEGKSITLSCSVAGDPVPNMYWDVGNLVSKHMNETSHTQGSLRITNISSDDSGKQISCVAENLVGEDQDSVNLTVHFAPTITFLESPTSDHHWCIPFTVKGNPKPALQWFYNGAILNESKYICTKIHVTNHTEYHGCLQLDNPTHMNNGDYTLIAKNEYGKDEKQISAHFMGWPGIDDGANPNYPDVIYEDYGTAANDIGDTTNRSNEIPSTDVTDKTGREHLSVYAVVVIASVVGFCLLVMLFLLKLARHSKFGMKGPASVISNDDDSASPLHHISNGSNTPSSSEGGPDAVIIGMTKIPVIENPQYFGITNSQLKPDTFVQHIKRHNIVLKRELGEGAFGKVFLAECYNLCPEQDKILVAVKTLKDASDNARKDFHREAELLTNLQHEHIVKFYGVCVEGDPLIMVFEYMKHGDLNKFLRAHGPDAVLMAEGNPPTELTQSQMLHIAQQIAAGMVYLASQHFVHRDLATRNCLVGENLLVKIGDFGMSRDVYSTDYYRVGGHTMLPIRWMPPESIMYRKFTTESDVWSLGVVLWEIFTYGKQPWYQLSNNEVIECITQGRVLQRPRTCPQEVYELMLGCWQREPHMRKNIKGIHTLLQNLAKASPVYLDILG
UniProt O95747, sequence (whole entry, looked up): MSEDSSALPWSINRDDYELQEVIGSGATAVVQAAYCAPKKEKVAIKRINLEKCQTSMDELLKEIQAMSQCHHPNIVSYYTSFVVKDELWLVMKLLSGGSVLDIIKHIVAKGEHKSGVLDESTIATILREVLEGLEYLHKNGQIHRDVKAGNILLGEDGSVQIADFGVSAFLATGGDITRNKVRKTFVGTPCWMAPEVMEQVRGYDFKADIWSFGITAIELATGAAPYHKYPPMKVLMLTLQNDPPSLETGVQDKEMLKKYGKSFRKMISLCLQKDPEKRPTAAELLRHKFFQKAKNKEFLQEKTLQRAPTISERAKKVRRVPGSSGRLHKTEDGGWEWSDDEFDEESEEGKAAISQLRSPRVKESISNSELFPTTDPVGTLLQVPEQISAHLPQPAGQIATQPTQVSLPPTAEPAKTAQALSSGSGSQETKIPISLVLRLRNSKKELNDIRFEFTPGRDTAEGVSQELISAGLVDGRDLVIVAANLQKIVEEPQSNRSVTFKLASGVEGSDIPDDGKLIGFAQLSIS
UniProt O76039, sequence (whole entry, looked up): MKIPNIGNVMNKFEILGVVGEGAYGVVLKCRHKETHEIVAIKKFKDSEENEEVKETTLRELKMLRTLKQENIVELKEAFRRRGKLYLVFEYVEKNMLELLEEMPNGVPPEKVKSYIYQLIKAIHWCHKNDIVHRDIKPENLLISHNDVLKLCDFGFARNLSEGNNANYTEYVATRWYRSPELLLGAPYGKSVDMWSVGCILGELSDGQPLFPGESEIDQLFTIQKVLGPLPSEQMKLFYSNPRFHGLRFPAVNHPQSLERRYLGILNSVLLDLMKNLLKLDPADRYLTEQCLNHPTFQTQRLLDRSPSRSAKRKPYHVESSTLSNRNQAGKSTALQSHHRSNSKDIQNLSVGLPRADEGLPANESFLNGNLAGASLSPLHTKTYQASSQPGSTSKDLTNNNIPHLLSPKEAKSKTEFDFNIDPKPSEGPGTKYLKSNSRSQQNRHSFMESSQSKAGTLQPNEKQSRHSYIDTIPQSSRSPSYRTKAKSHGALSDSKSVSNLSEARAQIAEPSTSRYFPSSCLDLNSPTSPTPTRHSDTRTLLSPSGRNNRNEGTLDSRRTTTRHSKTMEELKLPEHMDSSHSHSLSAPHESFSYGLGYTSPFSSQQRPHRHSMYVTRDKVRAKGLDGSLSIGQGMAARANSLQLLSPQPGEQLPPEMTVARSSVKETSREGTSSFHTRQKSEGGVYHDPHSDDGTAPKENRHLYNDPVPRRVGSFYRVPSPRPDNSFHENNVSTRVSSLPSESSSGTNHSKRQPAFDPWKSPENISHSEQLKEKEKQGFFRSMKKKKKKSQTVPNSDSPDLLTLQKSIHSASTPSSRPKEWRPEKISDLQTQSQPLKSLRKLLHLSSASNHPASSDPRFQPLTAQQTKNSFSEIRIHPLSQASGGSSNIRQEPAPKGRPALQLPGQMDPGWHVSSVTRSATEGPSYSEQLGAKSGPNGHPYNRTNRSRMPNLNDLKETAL

Series 1 — effect on: cell-free assay; method: competition with immobilised ligand; concentration: 1 µM
Compound: NS(=O)(=O)c1cc(NC(=O)Cc2ccccc2)ccc1Oc1cccc(Cl)c1
| target | remaining binding |
| --- | --- |
| PIK3CA (Homo sapiens, UniProt P42336, H1047Y) | 81% |
| KIT (Homo sapiens, UniProt P10721, V559D/V654A) | 100% |
| MAP2K2 (Homo sapiens, UniProt P36507) | 100% |
| NEK10 (Homo sapiens, UniProt Q6ZWH5) | 89% |
| CDKL5 (Homo sapiens, UniProt O76039) | 83% |
| NTRK2 (Homo sapiens, UniProt Q16620) | 66% |

Series 2 — concentration: 1 µM
Compound: COc1ccc2[nH]c3c4[nH]c5ccc(OC)cc5c4c4c(c3c2c1)C(=O)NC4=O
| target | test | conditions | how to read | remaining binding |
| --- | --- | --- | --- | --- |
| DDR1 (Homo sapiens, UniProt Q08345) | competitive binding panel |  | relative to: vehicle | 77% |
| FLT3 (Homo sapiens, UniProt P36888) | competitive binding scan | autoinhibited form |  | 53% |
| OXSR1 (Homo sapiens, UniProt O95747) | competitive binding panel, refers to: OSR1 |  | relative to: vehicle | 100% |
| SRC (Homo sapiens, UniProt P12931) | competitive binding panel |  | relative to: vehicle | 87% |
| NEK3 (Homo sapiens, UniProt P51956) | competitive binding panel |  | relative to: vehicle | 67% |
| SLK (Homo sapiens, UniProt Q9H2G2) | competitive binding panel |  | relative to: vehicle | 96% |
| NEK9 (Homo sapiens, UniProt Q8TD19) | competitive binding panel |  | relative to: vehicle | 100% |

Series 3 — effect on: enzyme activity; mode: inhibitor; concentration: 0.5 µM; relative to: control
Target: Serine/threonine-protein kinase Chk2 (CHEK2, Homo sapiens, UniProt O96017)
UniProt O96017, sequence (whole entry, looked up): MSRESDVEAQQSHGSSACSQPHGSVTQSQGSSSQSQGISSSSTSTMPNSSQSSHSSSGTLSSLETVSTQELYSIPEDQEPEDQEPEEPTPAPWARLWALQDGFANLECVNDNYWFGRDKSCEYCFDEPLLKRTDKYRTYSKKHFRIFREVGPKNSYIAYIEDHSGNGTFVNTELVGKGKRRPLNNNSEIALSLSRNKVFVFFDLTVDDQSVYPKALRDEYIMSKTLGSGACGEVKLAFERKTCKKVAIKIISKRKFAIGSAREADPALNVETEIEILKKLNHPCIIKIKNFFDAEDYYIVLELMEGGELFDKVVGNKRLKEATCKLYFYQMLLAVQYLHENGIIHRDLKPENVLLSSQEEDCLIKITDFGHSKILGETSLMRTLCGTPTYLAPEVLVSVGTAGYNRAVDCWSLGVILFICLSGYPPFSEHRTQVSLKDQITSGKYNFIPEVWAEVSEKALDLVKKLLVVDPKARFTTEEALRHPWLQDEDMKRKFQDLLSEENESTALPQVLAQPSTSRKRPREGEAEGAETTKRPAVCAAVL
| Compound | remaining activity |
| --- | --- |
| COc1cc2ncnc(Nc3ccc(Oc4ccccc4)cc3)c2cc1OC | 29.6% |
| COc1cc2nccc(Oc3ccc(NC(=S)NC(=O)c4ccccc4C)cc3)c2cc1OC | 67% |
| Cc1ccc(Nc2nccc(N(C)c3ccc4c(C)n(C)nc4c3)n2)cc1S(N)(=O)=O | 95.1% |
| CCOC(=O)c1c(C)[nH]c(/C=C2\C(=O)Nc3ccccc32)c1C | 70.5% |
| COc1ccc(OC)c2c(=S)c3ccccc3[nH]c12 | 117% |
| Cn1sc(=O)n(Cc2ccccc2)c1=O | 108% |
| O=C(O)c1ccc2c3c1cccc3c(=O)n1c3ccccc3nc21 | 75.2% |
| COc1ccc(CNC(=O)Nc2ncc([N+](=O)[O-])s2)cc1 | 99.2% |
| Cc1nc(-c2ccccc2)c(-c2ccncc2)o1 | 96.6% |
| Cc1cccc(-c2[nH]c(C(C)(C)C)nc2-c2ccc3c(c2)OCO3)n1 | 96.4% |
| O=C(CCCc1ccc(-c2ccccc2F)cc1)Nc1ccc(O)cc1 | 101% |
| N#CC(C#N)=C(N)/C(C#N)=C/c1ccc(O)cc1 | 95.5% |
| O=C(Nc1cccc(Nc2cc(Nc3cccc(C(F)(F)F)c3)ncn2)c1)C1CC1 | 99.5% |
| OCC(O)CCON=C1C(c2c(O)[nH]c3ccccc23)=Nc2ccccc21 (stereo not drawn) | 26.9% |
| Oc1ccc(-c2nc(-c3ccncc3)c(-c3ccc(F)cc3)[nH]2)cc1 | 98.9% |

Series 4 — method: LC-MS/MS; species: human cancer patients; matrix: plasma
Structure (SMILES): COc1ccc(-c2c(Nc3ccccn3)[nH]c3c(C4=CCCCC4)c(-c4ccccc4)nn3c2=O)cc1
| test | conditions | plasma concentration [ng/mL] |
| --- | --- | --- |
| refers to: methionine | QD, dose not given, 4 h, geometric mean, cycle 1 day 50 | 59300 |
| refers to: S-adenosylmethionine | 200 mg BID, 0 h, median, cycle 1 day 200 | 12.6 |
| refers to: S-adenosylmethionine | 50 mg QD, 0 h, mean, cycle 1 day 50 | 24.1 |
| refers to: methionine | 200 mg BID, 2 h, geometric mean, cycle 1 day 200 | 66300 |
| refers to: S-adenosylmethionine | 50 mg QD, 4 h, median, cycle 1 day 50 | 18.9 |
| refers to: methionine | QD, dose not given, 6 h, mean, cycle 1 day 50 | 70800 |
| refers to: methionine | 200 mg BID, 2 h, median, cycle 1 day 200 | 86400 |
| refers to: S-adenosylmethionine | 50 mg QD, 2 h, mean, cycle 1 day 50 | 23.5 |
| refers to: S-adenosylmethionine | 50 mg QD, 6 h, mean, cycle 1 day 50 | 22.3 |
| refers to: methionine | 200 mg BID, 8 h, mean, cycle 1 day 200 | 75800 |
| refers to: methionine | 200 mg BID, 4 h, geometric mean, cycle 1 day 200 | 67700 |
